# Results of several laboratories.
# Target: BDNF/NT-3 growth factors receptor (NTRK2, Homo sapiens, UniProt Q16620)
SMILES,test,conditions,inhibition [%]
CCn1cc(C(=O)O)c(=O)c2c(N)c(F)c(NC3CCCCC3)cc21,kinase activity,"0.1 µM, together with: ATP at Km",-6.5
COc1ccc(S(=O)(=O)N2CCc3ccccc3C2)cc1N1CCN(C(=O)c2ccc(F)cc2C(F)(F)F)CC1,"enzyme activity, inhibitor",1 µM,5.3
O=C(Nc1ccc(C(=O)Nc2ccc3[nH]ncc3c2)c(F)c1)Nc1cc(C(F)(F)F)ccc1F,"enzyme activity, inhibitor, FRET",1 µM,14.7
C=CC(=O)N1Cc2nc(-c3cc(-c4cc(Cl)cnc4Cl)c(F)cc3F)n(-c3ccncn3)c2C1,cell-free assay,1 µM,1.8
O=C(CN1CCN(C(=O)c2ccc(C(F)(F)F)cc2)CC1)Nc1cccc(C(=O)Nc2ccc3[nH]ncc3c2)c1,"enzyme activity, inhibitor, FRET",1 µM,26
CN1CCN(Cc2ccc(-c3ccc(CO[C@H]4CCC[C@@H]4NC(=O)c4cc(-c5cnn(C)c5)cnc4N)cc3)cc2)CC1,"enzyme activity, inhibitor",0.1 µM,0
CN1CC[C@@H](COc2cnc(C#N)cc2-c2ccn3nc(NC(=O)C4CC4)cc3c2)C1,"enzyme activity, inhibitor",1 µM,10
O=C(Nc1ccc(C(=O)Nc2ccc3[nH]ncc3c2)cc1F)Nc1cc(C(F)(F)F)ccc1F,"enzyme activity, inhibitor, FRET",1 µM,14.5
COc1ccc(O)cc1-c1c[nH]c2ncc(-c3cncc(C(=O)N(C)C)c3)cc12,"binding, competition with immobilised ligand",0.2 µM,5.38
O=C(Nc1ccc(F)c(C(=O)Nc2ccc3[nH]ncc3c2)c1)Nc1cc(C(F)(F)F)ccc1F,"enzyme activity, inhibitor, FRET",1 µM,11.3
C=CC(=O)Nc1cccc(-c2cnc3[nH]cc(C(=O)NC(C)(C)C)c3n2)c1,"enzyme activity, inhibitor",0.1 µM,6
NC(=O)[C@@H](O)C[C@H]1CCc2sc3ncnc(O[C@H]4CC[C@H](N5CCOCC5)CC4)c3c21,"enzyme activity, inhibitor",10 µM,50
Cc1cccc(O[C@H]2CCC[C@@H](C(C)CNCc3ccncc3)C2)c1 (relative stereo),cell-free assay,1 µM,0
O=C(Nc1ccc(C(=O)Nc2ccc3[nH]ncc3c2)c(Br)c1)Nc1cc(C(F)(F)F)ccc1F,"enzyme activity, inhibitor, FRET",1 µM,23.1
NC(=O)C[C@H]1CCc2sc3ncnc(O[C@H]4CC[C@H](N5CCOCC5)CC4)c3c21,"enzyme activity, inhibitor",10 µM,25

# A few entries again:
SMILES,test,conditions,inhibition [%]
COc1ccc(S(=O)(=O)N2CCc3ccccc3C2)cc1N1CCN(C(=O)c2ccc(F)cc2C(F)(F)F)CC1,"enzyme activity, inhibitor",1 µM,5.3
O=C(Nc1ccc(C(=O)Nc2ccc3[nH]ncc3c2)c(F)c1)Nc1cc(C(F)(F)F)ccc1F,"enzyme activity, inhibitor, FRET",1 µM,14.7
